Measured values gathered from unrelated publications.
Protocols differ between the studies behind these lines. ± gives the spread as reported.
4'-phosphopantetheinyl transferase PptT: 4'-phosphopantetheinyl transferase PptT (Mycobacterium tuberculosis, UniProt O33336)
UniProt O33336, sequence (whole entry, looked up): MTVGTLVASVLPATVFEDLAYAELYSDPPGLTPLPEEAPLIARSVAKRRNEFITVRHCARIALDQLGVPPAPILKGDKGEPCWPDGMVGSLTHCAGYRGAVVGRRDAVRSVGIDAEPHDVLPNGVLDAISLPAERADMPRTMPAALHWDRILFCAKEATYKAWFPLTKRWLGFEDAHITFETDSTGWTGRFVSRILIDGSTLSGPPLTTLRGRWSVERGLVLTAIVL
eis: N-acetyltransferase Eis (eis, Mycobacterium tuberculosis, UniProt P9WFK7)
UniProt P21554, sequence (whole entry, unmodified, looked up): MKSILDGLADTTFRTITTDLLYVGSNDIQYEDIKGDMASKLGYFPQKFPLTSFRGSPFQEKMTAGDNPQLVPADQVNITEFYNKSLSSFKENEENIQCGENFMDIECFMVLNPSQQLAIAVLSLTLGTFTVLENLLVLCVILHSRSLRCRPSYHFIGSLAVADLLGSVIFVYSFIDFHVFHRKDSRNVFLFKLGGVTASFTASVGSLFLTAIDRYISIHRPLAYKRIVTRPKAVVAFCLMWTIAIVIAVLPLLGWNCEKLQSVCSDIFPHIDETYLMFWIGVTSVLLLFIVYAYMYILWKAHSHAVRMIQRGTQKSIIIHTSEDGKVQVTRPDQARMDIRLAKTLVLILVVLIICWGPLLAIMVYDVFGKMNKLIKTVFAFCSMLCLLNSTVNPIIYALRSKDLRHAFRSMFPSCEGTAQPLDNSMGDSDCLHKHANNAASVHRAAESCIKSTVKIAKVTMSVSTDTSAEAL
UniProt P9WFK7, sequence (whole entry, looked up): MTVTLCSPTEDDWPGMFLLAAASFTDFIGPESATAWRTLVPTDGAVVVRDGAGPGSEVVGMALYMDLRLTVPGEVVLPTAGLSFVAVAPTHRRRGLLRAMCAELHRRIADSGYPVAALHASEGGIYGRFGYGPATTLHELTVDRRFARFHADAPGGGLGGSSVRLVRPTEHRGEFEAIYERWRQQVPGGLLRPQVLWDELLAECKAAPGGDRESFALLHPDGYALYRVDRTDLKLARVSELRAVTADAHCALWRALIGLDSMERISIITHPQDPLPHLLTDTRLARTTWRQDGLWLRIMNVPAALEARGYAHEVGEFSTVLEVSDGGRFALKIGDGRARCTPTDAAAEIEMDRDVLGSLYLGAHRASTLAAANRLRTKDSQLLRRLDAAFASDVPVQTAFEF
UniProt P32745, sequence (whole entry, looked up): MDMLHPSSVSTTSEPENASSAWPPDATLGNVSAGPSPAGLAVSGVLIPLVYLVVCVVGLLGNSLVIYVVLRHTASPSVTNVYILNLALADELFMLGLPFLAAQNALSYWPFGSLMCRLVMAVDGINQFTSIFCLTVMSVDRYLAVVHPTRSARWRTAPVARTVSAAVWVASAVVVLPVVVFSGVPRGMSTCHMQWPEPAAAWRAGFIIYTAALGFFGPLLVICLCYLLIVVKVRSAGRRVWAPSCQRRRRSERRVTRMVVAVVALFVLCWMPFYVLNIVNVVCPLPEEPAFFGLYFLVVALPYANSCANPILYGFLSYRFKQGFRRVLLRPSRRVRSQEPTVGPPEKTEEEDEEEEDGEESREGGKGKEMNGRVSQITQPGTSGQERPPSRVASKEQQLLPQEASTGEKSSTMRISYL
UniProt P03482, sequence (whole entry, looked up): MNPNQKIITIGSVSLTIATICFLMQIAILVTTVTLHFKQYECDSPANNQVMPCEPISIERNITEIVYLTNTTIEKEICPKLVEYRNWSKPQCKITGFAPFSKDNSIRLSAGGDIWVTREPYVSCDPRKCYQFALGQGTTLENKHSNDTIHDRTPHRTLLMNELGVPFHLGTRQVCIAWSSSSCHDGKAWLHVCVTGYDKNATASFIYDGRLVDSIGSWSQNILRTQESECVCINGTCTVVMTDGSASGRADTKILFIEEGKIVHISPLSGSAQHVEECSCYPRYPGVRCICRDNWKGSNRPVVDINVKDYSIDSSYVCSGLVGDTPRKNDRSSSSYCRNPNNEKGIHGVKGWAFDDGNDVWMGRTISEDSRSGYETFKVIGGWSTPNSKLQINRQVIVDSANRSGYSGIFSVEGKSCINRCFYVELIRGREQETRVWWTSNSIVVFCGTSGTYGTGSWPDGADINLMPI
UniProt Q60492, sequence (whole entry, looked up): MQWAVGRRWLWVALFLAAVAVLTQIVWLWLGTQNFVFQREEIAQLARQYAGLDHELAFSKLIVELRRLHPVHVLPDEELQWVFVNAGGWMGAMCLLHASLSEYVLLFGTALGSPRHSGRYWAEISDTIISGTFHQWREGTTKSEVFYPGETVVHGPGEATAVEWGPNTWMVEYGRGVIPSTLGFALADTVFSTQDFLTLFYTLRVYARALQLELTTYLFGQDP
UniProt P41595, sequence (whole entry, looked up): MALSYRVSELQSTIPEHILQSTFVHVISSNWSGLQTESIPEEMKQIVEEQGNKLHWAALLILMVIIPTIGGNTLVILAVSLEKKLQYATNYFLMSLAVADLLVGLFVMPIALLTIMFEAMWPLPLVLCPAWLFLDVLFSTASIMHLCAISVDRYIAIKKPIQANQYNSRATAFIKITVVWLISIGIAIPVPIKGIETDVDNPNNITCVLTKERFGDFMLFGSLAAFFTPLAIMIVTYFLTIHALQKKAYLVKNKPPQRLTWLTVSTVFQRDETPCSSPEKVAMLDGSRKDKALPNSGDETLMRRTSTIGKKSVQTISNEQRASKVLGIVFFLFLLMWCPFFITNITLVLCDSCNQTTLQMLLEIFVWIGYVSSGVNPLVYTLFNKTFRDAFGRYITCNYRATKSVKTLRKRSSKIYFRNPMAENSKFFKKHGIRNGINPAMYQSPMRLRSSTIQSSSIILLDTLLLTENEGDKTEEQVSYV
UniProt P01901, sequence (whole entry, looked up): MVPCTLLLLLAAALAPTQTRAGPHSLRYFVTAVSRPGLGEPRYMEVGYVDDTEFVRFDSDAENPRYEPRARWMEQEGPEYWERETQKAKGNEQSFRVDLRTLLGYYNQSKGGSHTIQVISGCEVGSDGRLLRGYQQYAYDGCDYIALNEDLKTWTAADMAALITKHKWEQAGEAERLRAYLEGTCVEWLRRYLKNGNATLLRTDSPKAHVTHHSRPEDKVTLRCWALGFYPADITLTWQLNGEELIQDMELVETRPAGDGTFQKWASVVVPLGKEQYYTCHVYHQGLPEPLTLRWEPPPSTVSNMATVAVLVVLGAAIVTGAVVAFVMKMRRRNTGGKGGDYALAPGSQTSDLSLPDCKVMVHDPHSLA
UniProt P40337, sequence (whole entry, looked up): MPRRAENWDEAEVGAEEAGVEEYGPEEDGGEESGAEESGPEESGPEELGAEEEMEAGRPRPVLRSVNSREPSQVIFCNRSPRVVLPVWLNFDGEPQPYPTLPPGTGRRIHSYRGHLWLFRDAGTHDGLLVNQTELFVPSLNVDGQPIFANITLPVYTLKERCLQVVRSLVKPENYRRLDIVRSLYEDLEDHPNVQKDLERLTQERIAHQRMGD
UniProt P33261, sequence (whole entry, looked up): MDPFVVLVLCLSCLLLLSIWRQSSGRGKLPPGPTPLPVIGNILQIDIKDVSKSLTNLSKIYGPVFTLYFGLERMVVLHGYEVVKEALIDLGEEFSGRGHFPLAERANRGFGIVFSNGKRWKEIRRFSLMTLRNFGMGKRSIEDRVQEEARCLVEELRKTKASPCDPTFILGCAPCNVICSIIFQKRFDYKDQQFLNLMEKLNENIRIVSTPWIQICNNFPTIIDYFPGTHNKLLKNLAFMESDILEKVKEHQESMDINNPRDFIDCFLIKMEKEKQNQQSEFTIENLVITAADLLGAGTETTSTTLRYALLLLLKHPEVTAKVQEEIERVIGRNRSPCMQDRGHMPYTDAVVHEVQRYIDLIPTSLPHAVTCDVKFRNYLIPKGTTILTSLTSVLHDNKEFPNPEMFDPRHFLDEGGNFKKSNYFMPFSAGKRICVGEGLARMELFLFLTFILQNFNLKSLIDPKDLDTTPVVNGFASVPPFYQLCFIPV
UniProt P9WPA5, sequence (whole entry, looked up): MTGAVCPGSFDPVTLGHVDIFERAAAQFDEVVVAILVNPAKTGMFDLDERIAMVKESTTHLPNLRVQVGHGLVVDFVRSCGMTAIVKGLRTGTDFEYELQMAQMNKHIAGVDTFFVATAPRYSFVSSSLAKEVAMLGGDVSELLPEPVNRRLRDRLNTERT
UniProt P17659, sequence (whole entry, looked up): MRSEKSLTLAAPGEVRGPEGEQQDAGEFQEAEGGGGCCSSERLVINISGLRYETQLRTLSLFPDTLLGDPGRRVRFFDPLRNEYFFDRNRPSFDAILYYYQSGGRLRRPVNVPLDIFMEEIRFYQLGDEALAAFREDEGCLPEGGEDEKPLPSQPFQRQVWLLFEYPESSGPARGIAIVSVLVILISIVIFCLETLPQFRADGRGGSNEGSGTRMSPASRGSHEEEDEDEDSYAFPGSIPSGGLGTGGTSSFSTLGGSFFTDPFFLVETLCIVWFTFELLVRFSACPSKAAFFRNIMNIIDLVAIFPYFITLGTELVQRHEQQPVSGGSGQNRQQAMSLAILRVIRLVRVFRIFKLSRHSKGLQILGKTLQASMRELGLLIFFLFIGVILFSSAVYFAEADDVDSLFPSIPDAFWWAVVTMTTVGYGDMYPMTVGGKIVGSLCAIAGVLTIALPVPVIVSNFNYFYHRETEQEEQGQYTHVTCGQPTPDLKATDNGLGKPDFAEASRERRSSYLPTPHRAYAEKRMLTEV
UniProt O75469, sequence (whole entry, looked up): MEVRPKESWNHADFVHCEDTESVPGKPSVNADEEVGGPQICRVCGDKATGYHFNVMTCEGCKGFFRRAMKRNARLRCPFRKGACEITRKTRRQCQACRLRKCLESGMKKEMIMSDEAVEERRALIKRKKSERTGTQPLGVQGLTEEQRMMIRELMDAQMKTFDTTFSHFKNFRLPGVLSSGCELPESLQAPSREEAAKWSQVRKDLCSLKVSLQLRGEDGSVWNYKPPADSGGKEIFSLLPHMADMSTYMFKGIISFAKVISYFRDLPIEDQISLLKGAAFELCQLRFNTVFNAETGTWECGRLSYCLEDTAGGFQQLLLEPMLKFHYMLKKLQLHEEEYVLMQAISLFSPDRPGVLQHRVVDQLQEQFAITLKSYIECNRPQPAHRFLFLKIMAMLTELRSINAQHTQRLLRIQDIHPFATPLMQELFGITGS

The IC50 of `Cc1nc(=O)c2cc(CN(C)c3ccc(C(=O)NCCN4C(=O)NC(=O)[C@H]4C)s3)ccc2[nH]1` is reported as 2.69 µM (4'-phosphopantetheinyl transferase PptT; enzyme activity, inhibitor, fluorescence polarization; enzyme 100 nM).
The IC50 of `CC(C)(C)C1CCc2c(sc3nc(SCCN4CCCCC4)nc(N)c23)C1` (centres unmarked) is reported as 16 ± 2 µM (eis; inhibitor).
With `C#CCN(Cc1ccc2nc(N)[nH]c(=O)c2c1)c1ccc(C(=O)N[C@@H](CCC(=O)O)C(=O)O)cc1` the IC50 was 0.27 µM (4'-phosphopantetheinyl transferase PptT; enzyme activity, inhibitor, fluorescence polarization; enzyme 100 nM).
The IC50 of `CN(C)CCNC(=O)CSc1nc(N)c2c3c(sc2n1)CCC3` is reported as 11 ± 1 µM (eis; inhibitor).
The Kd of `O=S(=O)(O)CCOCC1CSSCC(COCCS(=O)(=O)O)SS1` (centres unmarked) is reported as 8.5 ± 0.8 µM (DNA-binding response regulator MtrA, C-terminal domain (mtrA, Mycobacterium tuberculosis, UniProt P9WGM7); binding, LSPR).
For `CCCCCn1cc(C(=O)c2cccc3c2CC(C)(C)C3)c2ccccc21`, the EC50 was 0.0646 µM (Cannabinoid receptor 1 (CNR1, Homo sapiens, UniProt P21554, L359V); G protein activation, agonist, BRET).
With `CN(C)CCNC(=O)CSc1nc(N)c2c3c(sc2n1)CC(c1ccccc1)CC3` (centres unmarked) the IC50 was 3 ± 0.6 µM (eis; inhibitor).
`CSCC[C@H](NC(=O)[C@@H]1CSSC[C@H](NC(=O)[C@H](CCCCN)NC(=O)[C@H](Cc2ccc(O)cc2)NC(=O)CNC(=O)[C@@H](N)CC(C(=O)O)C(=O)O)C(=O)N[C@@H](C(C)C)C(=O)N[C@H](Cc2c[nH]c3ccccc23)C(=O)N[C@@H](CCCCN)C(=O)N[C@@H]([C@@H](C)O)C(=O)N1)C(=O)N1C[C@H](O)C[C@H]1C(=O)N[C@@H](C)C(=O)O` has an EC50 of greater than 300 µM (Somatostatin receptor type 3 (SSTR3, Homo sapiens, UniProt P32745); β-arrestin recruitment, agonist).
`Cc1nc(=O)c2cc(CN(C)c3ccc(C(=O)NCCCC(=O)O)s3)ccc2[nH]1` has an IC50 of 0.1 µM (4'-phosphopantetheinyl transferase PptT; enzyme activity, inhibitor, fluorescence polarization; enzyme 100 nM).
`CCCCCn1cc(C(=O)c2cccc3ccccc23)c2ccccc21` gave an EC50 of 0.0132 µM (Cannabinoid receptor 1 (CNR1, Homo sapiens, UniProt P21554, L193I); G protein activation, agonist, BRET).
For `O=C(O)c1cnn(-c2ccccc2)c1OCCCCc1c[nH]c2ccccc12`, the Kd was 27 ± 4 µM (Phosphopantetheine adenylyltransferase (coaD, Mycobacterium tuberculosis, UniProt P9WPA5); ITC direct titration; 5% DMSO; pH 8.0, 25 °C).
The Kd of `CC[C@H](C)[C@H](NC(=O)[C@@H](NC(=O)[C@@H](N)CO)[C@@H](C)CC)C(=O)N[C@@H](CC(N)=O)C(=O)N[C@@H](Cc1ccccc1)C(=O)N[C@@H](CCC(=O)O)C(=O)N[C@@H](CCCCN)C(=O)N[C@@H](CC(C)C)C(=O)O` is reported as 0.0045 µM (H-2 class I histocompatibility antigen, K-B alpha chain, 25 (H2-K1, Mus musculus, UniProt P01901); 23 °C).
The Kd of `CC1=CC(C)=[N+]2C1=Cc1ccc(CCC(=O)NCCOCCOCCOCCOCC(=O)N[C@H](C(=O)N3C[C@H](O)C[C@H]3C(=O)NCc3ccc(-c4scnc4C)cc3)C(C)(C)C)n1[B-]2(F)F` is reported as 0.00301 µM (von Hippel-Lindau disease tumor suppressor, with elongin B/C (VHL, Homo sapiens, UniProt P40337); binding, TR-FRET; 90 min, total binding).
`CC(=O)OC/C=C/C1=CC2=C(CO1)C(=O)[C@](C)(O)[C@H](OC(=O)c1c(C)cc(O)cc1O)C2` has a Ki of 42 µM (Neuraminidase (NA, Influenza A virus, UniProt P03482); inhibitor; influenza A virus H3N2).
`CCOC(=O)CC[C@@H](NC(=O)c1ccc(N(C)Cc2ccc3[nH]c(C)nc(=O)c3c2)s1)C(=O)OCC` gave an IC50 of 1.19 µM (4'-phosphopantetheinyl transferase PptT; enzyme activity, inhibitor, fluorescence polarization; enzyme 100 nM).
With `CCN(CC)CCNC(=O)CSc1nc(N)c2c3c(sc2n1)CCCC3` the IC50 was 0.25 ± 0.02 µM (eis; inhibitor).
`C#CCN(Cc1ccc2nc[nH]c(=O)c2c1)c1ccc(C(=O)N[C@@H](CCC(=O)O)C(=O)O)cc1` gave an IC50 of 0.33 µM (4'-phosphopantetheinyl transferase PptT; enzyme activity, inhibitor, fluorescence polarization; enzyme 100 nM).
`CC(=O)Oc1cccc2[nH]cc(CC[N+](C)(C)C)c12` gave a Ki of greater than 10 µM (5-hydroxytryptamine receptor 2B (HTR2B, Homo sapiens, UniProt P41595); ligand displacement, radioligand; cell membranes).
`CSCC[C@@H]1NC(=O)[C@H](CCCNC(=N)N)NC(=O)[C@H](Cc2ccc(O)cc2)NC(=O)[C@@H](NC(=O)[C@H](CCCNC(=N)N)NC(=O)[C@H](CCCCN)NC(=O)[C@H](CC(=O)O)NC(=O)[C@H](C)N)CSSC[C@@H](C(=O)N[C@@H](CCCNC(=N)N)C(=O)N[C@@H](Cc2ccc(O)cc2)C(=O)NCC(=O)O)NC(=O)CNC(=O)[C@H](CCCCN)NC(=O)[C@H](CCCCN)NC(=O)[C@@H]2CSSC[C@H](NC1=O)C(=O)N[C@@H](CCC(N)=O)C(=O)N[C@@H](CCCNC(=N)N)C(=O)N[C@@H](Cc1ccc(O)cc1)C(=O)N[C@@H](Cc1c[nH]cn1)C(=O)N[C@@H](CCC(N)=O)C(=O)N[C@@H](CCCNC(=N)N)C(=O)N[C@@H](CCCNC(=N)N)C(=O)N[C@@H](CCC(N)=O)C(=O)N[C@@H](CCCNC(=N)N)C(=O)N[C@@H](CCCNC(=N)N)C(=O)N[C@@H](CCC(N)=O)C(=O)N2` has an EC50 of 0.01 µM (Potassium voltage-gated channel subfamily A member 6 (Rattus norvegicus, UniProt P17659)).
With `C#CCN(Cc1ccc2nc(N)nc(N)c2c1)c1ccc(C(=O)N[C@@H](CCC(=O)OCC)C(=O)OCC)cc1` the IC50 was greater than 25 µM (4'-phosphopantetheinyl transferase PptT; enzyme activity, inhibitor, fluorescence polarization; enzyme 100 nM).
With `CC1CCc2c(sc3nc(SCCCN4CCCCC4)nc(N)c23)C1` (centres unmarked) the IC50 was 0.61 ± 0.08 µM (eis; inhibitor).
The Ki of `CC[C@H](C)[C@H](NC(=O)[C@@H]1CCCN1C(=O)[C@H](CCC(=O)O)NC(=O)[C@H](CCSC)NC(=O)CNC(=O)[C@H](CC(N)=O)NC(=O)CNC(=O)CNC(=O)[C@H](CCC(=O)O)NC(=O)CNC(=O)[C@H](CCCNC(=N)N)NC(=O)[C@H](CCC(N)=O)NC(=O)[C@H](Cc1ccc(O)cc1)NC(=O)[C@H](CC(C)C)NC(=O)[C@H](CCCCN)NC(=O)[C@@H]1CCCN1C(=O)[C@H](CCC(N)=O)NC(=O)[C@H](C)NC(=O)[C@@H](NC(=O)[C@H](CCC(=O)O)NC(=O)[C@H](C)NC(=O)[C@H](CCC(=O)O)NC(=O)[C@@H](NC(=O)[C@@H]1CCCN1C(=O)[C@@H](N)CCCCN)C(C)C)C(C)C)C(=O)N1CCC[C@H]1C(=O)N[C@@H](CCC(=O)O)C(=O)N[C@@H](CC(=O)O)C(=O)N[C@@H](Cc1ccc(OS(=O)(=O)O)cc1)C(=O)N[C@@H](CC(C)C)C(=O)N[C@@H](CC(N)=O)C(=O)N[C@@H](CCC(=O)O)C(=O)N[C@@H](C)C(=O)N[C@@H](CC(C)C)C(=O)N[C@@H](CC(N)=O)C(=O)N[C@@H](C)C(=O)O` is reported as 1e-05 µM (Prothrombin (F2, Homo sapiens, UniProt P00734); enzyme activity, inhibitor, absorbance; pH 8).
For `CCCCCc1cc(O)c2c(c1)OC(C)(C)C1CCC(C)=CC21` (single isomer, unassigned; (-)), the IC50 was 4.2 µM (Cytochrome P450 2C19 (CYP2C19, Homo sapiens, UniProt P33261); enzyme activity, inhibitor; human, liver microsomes; pH 7.4).
`CCC1(O)CC2CN(CCc3c([nH]c4ccccc34)C(C(=O)OC)(c3cc4c(cc3OC)N(C)C3C(O)(C(=O)OC)C(OC(=O)CCC5=[N+]6C(=Cc7c(C)cc(C)n7[B-]6(F)F)C=C5)C5(CC)C=CCN6CCC43C65)C2)C1` (centres unmarked) has a Kd of 0.297 µM (Nuclear receptor subfamily 1 group I member 2 (NR1I2, Homo sapiens, UniProt O75469); binding; 30 min, pH 7.5).
With `CCC1CCc2c(sc3nc(SCC(=O)NCCN(C)C)nc(N)c23)C1` (centres unmarked) the IC50 was 1.1 ± 0.1 µM (eis; inhibitor).
For `Cc1nc(=O)c2cc(CN(C)c3ccc(C(=O)N[C@H](CCC(=O)O)c4nnn[nH]4)s3)ccc2[nH]1`, the IC50 was 0.04 µM (4'-phosphopantetheinyl transferase PptT; enzyme activity, inhibitor, fluorescence polarization; enzyme 100 nM).
`CCCCCn1cc(C(=O)c2ccc3c(c2)CC(C)(C)C3)c2ccccc21` has an EC50 of 0.282 µM (Cannabinoid receptor 1 (CNR1, Homo sapiens, UniProt P21554, I267L/L193I/L359V); Gαi1 engagement, agonist, BRET).
The IC50 of `Cc1nc2ccc(CN(C)c3ccc(C(=O)N[C@H](CCC(=O)O)C(=O)O)s3)cc2c(=O)[nH]1` is reported as 0.07 µM (4'-phosphopantetheinyl transferase PptT; enzyme activity, inhibitor, fluorescence polarization; enzyme 100 nM).
`CC(C)(C)C1CCc2c(sc3nc(SCCCN4CCCCC4)nc(N)c23)C1` (racemic) gave an IC50 of 6.6 ± 1.2 µM (eis; inhibitor).
For `COc1ccc2c(c1)c(C(=O)O)c(C)n2CC(C)C`, the Kd was 800 µM (E3 ubiquitin-protein ligase CBL-C (Homo sapiens, UniProt Q9ULV8); binding, NMR).
With `CN(C)CCNC(=O)CSc1nc(N)c2c3c(sc2n1)CCCCC3` the IC50 was 8.7 ± 1.2 µM (eis; inhibitor).
`CCOC(=O)C1C(OC(c2ccc(Cl)cc2)c2ccc(Cl)cc2)CC2CCC1N2C` (single isomer, unassigned) has a Ki of 8.28 µM (Sigma non-opioid intracellular receptor 1 (SIGMAR1, Cavia porcellus, UniProt Q60492); radioligand binding; guinea pig; racemate, together with: [3H](+)-pentazocine).
